Assay results pooled from the literature.
Compare with care: the assays were run in different laboratories. Values joined by “and” are separate records of one study, mostly repeats; a detail may differ. ± marks the error that the study gave.
ADRB1: Beta-1 adrenergic receptor (ADRB1, Homo sapiens, UniProt P08588)
Sequence of UniProt P08588 (whole entry, looked up): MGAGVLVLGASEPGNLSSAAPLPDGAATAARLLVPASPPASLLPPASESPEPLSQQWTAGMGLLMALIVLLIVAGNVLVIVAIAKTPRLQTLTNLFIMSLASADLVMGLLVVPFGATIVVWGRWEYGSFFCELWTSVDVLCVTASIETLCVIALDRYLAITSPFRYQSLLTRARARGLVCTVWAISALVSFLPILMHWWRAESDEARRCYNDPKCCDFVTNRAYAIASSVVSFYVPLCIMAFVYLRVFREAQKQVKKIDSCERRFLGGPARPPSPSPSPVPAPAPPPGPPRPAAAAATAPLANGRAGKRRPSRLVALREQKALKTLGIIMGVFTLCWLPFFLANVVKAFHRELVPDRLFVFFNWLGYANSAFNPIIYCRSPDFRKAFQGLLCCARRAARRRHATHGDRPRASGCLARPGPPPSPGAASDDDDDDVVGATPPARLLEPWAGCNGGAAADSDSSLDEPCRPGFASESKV
Oprd1: Delta-type opioid receptor (Oprd1, Rattus norvegicus, UniProt P33533)
Sequence of UniProt P33533 (whole entry, looked up): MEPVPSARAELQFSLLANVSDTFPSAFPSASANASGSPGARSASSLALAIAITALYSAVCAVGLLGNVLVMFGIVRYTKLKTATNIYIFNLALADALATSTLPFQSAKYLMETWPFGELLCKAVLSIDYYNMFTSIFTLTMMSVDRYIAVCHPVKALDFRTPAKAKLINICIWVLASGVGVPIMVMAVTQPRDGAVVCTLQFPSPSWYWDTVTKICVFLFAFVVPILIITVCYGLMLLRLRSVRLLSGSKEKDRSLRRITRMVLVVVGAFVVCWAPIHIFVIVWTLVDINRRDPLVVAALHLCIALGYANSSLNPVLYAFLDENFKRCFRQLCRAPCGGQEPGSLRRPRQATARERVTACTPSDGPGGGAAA
Sequence of UniProt Q8BLF1 (whole entry, looked up): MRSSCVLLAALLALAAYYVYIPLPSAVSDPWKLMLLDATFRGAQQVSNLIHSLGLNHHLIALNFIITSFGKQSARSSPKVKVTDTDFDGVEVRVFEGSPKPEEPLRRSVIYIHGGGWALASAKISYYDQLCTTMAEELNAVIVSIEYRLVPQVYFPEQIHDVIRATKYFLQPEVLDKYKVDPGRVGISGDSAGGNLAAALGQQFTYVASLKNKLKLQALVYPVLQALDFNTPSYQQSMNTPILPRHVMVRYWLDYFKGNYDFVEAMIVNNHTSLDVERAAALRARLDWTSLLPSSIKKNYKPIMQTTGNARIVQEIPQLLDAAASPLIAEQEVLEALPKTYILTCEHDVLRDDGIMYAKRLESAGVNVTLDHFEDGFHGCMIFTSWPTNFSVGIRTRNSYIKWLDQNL
Sequence of UniProt O15264 (whole entry, looked up): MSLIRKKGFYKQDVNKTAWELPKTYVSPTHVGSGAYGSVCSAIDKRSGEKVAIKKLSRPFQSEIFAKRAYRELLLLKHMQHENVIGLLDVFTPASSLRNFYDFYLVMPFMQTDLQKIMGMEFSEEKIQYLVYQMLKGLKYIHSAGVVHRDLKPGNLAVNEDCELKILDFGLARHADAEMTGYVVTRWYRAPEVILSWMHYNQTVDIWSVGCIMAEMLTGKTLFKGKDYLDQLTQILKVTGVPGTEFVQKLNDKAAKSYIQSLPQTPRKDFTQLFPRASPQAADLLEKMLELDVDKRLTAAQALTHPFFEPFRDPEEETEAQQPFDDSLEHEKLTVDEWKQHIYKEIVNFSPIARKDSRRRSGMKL
Sequence of UniProt Q9Y2J8 (whole entry, looked up): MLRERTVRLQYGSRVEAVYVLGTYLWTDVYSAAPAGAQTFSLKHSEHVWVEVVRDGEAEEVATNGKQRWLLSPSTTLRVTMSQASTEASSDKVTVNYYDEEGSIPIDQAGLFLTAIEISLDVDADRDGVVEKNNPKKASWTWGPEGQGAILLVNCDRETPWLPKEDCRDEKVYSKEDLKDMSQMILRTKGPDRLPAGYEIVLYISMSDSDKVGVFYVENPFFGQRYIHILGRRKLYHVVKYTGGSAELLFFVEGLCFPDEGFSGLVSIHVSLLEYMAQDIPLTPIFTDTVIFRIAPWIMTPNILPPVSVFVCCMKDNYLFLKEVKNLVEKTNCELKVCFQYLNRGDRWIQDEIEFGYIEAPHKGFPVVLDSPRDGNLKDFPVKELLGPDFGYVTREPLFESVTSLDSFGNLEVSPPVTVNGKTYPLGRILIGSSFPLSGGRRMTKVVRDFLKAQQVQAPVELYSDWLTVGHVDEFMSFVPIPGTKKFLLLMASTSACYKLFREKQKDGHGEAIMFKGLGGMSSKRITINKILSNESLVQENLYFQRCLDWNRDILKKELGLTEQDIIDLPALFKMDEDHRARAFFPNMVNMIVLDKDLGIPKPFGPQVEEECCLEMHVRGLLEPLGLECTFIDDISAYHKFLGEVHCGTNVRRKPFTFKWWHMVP
Sequence of UniProt P35367 (whole entry, looked up): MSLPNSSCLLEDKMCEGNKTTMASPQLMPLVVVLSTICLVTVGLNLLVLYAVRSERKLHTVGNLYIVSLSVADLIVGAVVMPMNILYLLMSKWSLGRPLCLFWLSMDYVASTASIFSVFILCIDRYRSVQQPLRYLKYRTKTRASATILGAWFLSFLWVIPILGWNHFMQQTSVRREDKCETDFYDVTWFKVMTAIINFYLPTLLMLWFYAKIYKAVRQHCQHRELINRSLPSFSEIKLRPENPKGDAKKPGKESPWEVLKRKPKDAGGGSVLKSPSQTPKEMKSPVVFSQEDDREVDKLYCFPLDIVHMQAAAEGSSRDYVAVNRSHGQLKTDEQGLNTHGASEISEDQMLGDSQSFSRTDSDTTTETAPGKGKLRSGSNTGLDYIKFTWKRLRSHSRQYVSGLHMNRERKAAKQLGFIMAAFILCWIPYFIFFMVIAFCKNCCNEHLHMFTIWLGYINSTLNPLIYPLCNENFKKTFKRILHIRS
Sequence of UniProt Q08460 (whole entry, looked up): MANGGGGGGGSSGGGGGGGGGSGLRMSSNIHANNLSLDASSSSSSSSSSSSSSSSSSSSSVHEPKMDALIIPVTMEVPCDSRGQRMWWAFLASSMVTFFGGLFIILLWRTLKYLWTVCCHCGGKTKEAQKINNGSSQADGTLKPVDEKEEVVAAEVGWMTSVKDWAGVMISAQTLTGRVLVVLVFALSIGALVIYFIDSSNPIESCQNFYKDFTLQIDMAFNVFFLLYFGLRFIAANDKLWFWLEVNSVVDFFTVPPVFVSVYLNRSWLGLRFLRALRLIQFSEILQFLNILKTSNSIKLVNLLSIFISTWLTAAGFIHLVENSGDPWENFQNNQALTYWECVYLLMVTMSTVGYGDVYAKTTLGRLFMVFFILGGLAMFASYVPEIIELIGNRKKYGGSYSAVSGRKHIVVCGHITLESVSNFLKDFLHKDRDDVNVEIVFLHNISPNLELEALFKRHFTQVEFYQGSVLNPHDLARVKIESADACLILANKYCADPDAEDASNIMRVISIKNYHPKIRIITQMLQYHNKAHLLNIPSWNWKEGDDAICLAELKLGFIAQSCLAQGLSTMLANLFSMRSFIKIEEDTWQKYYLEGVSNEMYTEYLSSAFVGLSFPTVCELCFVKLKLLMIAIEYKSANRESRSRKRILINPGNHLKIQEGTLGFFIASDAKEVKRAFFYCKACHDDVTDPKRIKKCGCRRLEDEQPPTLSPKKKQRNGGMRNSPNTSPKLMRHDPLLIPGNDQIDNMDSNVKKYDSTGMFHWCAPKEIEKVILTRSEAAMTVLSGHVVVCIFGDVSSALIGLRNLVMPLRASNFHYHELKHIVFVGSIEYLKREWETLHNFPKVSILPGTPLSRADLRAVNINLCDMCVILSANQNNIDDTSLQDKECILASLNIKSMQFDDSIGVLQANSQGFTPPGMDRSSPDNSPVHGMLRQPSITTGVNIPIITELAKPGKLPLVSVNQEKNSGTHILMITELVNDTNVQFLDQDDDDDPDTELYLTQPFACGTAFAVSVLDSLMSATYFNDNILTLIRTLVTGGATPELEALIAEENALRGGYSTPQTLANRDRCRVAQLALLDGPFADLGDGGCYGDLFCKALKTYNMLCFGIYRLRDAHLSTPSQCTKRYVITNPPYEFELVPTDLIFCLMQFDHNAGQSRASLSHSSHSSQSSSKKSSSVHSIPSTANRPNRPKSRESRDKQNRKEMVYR
Sequence of UniProt Q9UQM7 (whole entry, looked up): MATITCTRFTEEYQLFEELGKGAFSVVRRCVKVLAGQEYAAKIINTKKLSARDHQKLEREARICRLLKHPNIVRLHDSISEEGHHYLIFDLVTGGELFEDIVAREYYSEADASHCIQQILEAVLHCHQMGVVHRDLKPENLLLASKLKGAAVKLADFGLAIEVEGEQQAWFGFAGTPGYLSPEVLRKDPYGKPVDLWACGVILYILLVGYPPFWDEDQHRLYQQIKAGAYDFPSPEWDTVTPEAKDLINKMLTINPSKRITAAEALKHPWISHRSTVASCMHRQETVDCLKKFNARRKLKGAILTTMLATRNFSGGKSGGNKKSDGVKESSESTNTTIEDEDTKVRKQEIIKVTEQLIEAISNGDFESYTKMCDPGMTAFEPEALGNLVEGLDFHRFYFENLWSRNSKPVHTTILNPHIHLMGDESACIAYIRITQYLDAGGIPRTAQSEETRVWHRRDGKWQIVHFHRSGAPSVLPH
Sequence of UniProt Q6DWJ6 (whole entry, looked up): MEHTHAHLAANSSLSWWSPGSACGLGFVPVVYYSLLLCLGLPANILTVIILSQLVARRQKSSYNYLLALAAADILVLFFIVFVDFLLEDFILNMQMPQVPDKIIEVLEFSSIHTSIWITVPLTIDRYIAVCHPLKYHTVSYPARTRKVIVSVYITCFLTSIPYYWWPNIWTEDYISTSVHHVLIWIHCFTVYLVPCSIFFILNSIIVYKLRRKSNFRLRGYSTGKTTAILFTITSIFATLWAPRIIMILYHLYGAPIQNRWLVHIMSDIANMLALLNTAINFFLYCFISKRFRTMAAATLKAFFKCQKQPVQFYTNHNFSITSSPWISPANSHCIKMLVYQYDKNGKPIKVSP

For CC[C@@H](C)[C@@H](NC(=O)[C@@H](CCC(N)=O)NC(=O)[C@H](NC(=O)[C@H]1CCCN1C(=O)[C@H](NC(=O)[C@@H](CO)NC(=O)[C@@H](Cc1ccccc1)NC(=O)[C@H]1CCCN1C(=O)[C@@H](CCC(N)=O)NC(=O)[C@H](N)CCSC)[C@H](C)CC)C(C)C)C(=O)N[C@@H](C(=O)N[C@H](CC(C)C)C(=O)N[C@H](CCC(N)=O)C(=O)NCC(=O)N[C@H](CO)C(=O)N[C@H](CCCNC(=N)N)C(=O)N[C@H](CCCNC(=N)N)C(=O)N[C@H](CCCNC(=N)N)C(=O)N[C@H](CCC(N)=O)C(=O)NCC(=O)N[C@H](CCCNC(=N)N)C(N)=O)[C@H](C)O, the Hill coefficient was 0.77 (Kcnma1 (Mus musculus, UniProt Q08460); ion current, blocker, inside-out patch clamp; Xenopus oocytes; +80 mV, together with: 10 µM cytosolic Ca2+).
With O=C1NC(=O)c2c1c1cc(F)c[n+]3c1c1c2c2cc(O)ccc2[n]1[Ru-4]312([N]=C=S)[S+]3CC[S+]1CC[S+]2CC3 (stereo not drawn) the remaining activity was 8% (cGMP-dependent protein kinase 1, isoform beta (PRKG1, Homo sapiens, UniProt Q13976); enzyme activity; 100 nM, human enzyme, together with: 10 µM ATP; baseline: untreated).
N[C@H](Cc1ccccc1)P(=O)(O)O has a ΔH of -7.3 kcal/mol (PAL1 (Petroselinum crispum, UniProt P24481, Y110F); binding, ITC).
With Cc1cc(Nc2nc(C[C@@]3(C(=O)O)CCN(Cc4cccc(Cl)c4F)[C@H](C)C3)cc(C)c2F)[nH]n1 the activation was -0.3% (ADRB1; agonist; 10 µM).
With C[C@@H]1COCCN1c1nc(NCc2cccnc2C(F)(F)F)c2cccnc2n1 the IC50 was greater than 100 µM (ACHE (Homo sapiens, UniProt P22303); binding; CEREP panel).
CC[C@H](C)[C@H](NC(=O)[C@H](CCCNC(=N)N)NC(=O)[C@H](CCCNC(=N)N)NC(=O)[C@H](CC(C)C)NC(=O)[C@H](Cc1ccccc1)NC(=O)CNC(=O)CNC(=O)[C@@H](N)Cc1ccc(O)cc1)C(=O)N[C@@H](CCCNC(=N)N)C(=O)N1CCC[C@H]1C(=O)N[C@@H](CCCCN)C(=O)N[C@@H](CC(C)C)C(=O)N[C@@H](CCCCN)C(=O)O — result for “maximal G protein activation”: roughly 62% (GPR139 (Homo sapiens, UniProt Q6DWJ6); G11 activation, agonist, BRET; 40 µM; baseline: GoA response).
CCNC(=S)NN=Cc1c2ccccc2cc2ccccc12.Cc1ccc(C(C)C)cc1.[Cl-].[Cl-].[Ru+2] gave a binding constant of 6.41 ± 0.12 10⁴ M⁻¹ (Albumin (ALB, Homo sapiens, UniProt P02768); fluorescence titration, Scatchard; 296 K).
For CCN(N=Cc1cnc2ccc(Br)cn12)S(=O)(=O)c1cc([N+](=O)[O-])ccc1C, “IC50 fold change” read 1 (PIK3CB (Homo sapiens, UniProt P42338); luminescence; baseline: wild-type p110β).
For C/C(=N\OCCCN1CCCCC1)c1ccc(C(F)(F)F)cc1, the activation was 2.33% (HRH1 (Homo sapiens, UniProt P35367); agonist, IP-One; 10 µM).
C=C(c1ccccc1)[C@H](N)P(=O)(O)O: “reaction rate reduction” 53% (Phenylalanine/tyrosine ammonia-lyase (PAL, Rhodotorula toruloides, UniProt P11544); inhibitor; 50 µM, together with: L-Phe 5 mM).
With CC(C)[C@H]1NC(=O)C[C@H]2/C=C/CCSSC[C@@H](NC1=O)C(=O)N[C@H](Cc1cccc3ccccc13)C(=O)NCC(=O)O2 the inhibition was -1% (CAMK2A (Homo sapiens, UniProt Q9UQM7); enzyme activity, inhibitor; 10 µM).
For Oc1ccc(C[C@@H]2CN([C@@H](CC3CCCCC3)CN3CCC[C@H]3CN3CCNC[C@@H]3Cc3ccc4ccccc4c3)CCN2CCc2ccc(Cl)c(Cl)c2)cc1, the remaining binding was 98.9% (Oprd1; radioligand binding; rat brain membranes; 500 nM, pH 7.5, 25 °C, together with: 2 nM [3H]DPDPE).
For CC(C)CC(O)(CC(C)C)c1cn(C(=O)N2CCCC2)nn1, “SILAC activity ratio” read 1.18 and 1.29 and 1.13 and 1.16 and 1.26 and 1.24 (Neutral cholesterol ester hydrolase 1 (Mus musculus, UniProt Q8BLF1); probe labelling, inhibitor, competitive ABPP-SILAC, item: Aadacl1; mouse T cells; concentration not given, 4 h, single peptide; baseline: treated over DMSO cells, lower = stronger inhibition).
For N[C@H](C(=O)N1CCCC1)C1CCN(c2nccc3c(-c4ncc(Cl)cc4Cl)cccc23)CC1, the kcat was 0.18 s⁻¹ and 0.202 s⁻¹ (PADI2 (Homo sapiens, UniProt Q9Y2J8); enzyme activity; 0.2458 µM, together with: Ca2+ 0.25 mM).
For COc1c(N2CC3CCCNC3C2)c(F)cc2c(=O)c(C(=O)OCc3cnc([N+](=O)[O-])n3C)cn(C3CC3)c12 (stereo not drawn), the kcat was 0.0975 s⁻¹ (nfsB (Escherichia coli K-12, UniProt P38489); substrate; together with: NADH 100 µM).
Cc1cc(-c2ccc3ccccc3c2)nnc1NCCN1CCN(C)CC1 — result for antagonist activity: “negative” (ADRB1; antagonist; concentration not given).
With O=C(O)c1cccc(CP(=O)(O)O)n1 the dissociative half-life was 11 ± 1.9 min (Beta-lactamase L1 (Stenotrophomonas maltophilia, UniProt P52700); binding, inhibitor, nitrocefin progress curves).
With CN(C)CCCSC(=S)N1CCN(C(=O)/C=C/c2coc3ccccc3c2=O)CC1 the MST response was 842 a.u. (Nucleoprotein (N, Tomato spotted wilt virus, UniProt P25999, R94A); binding, microscale thermophoresis; 0.1221 µM; dose series).
With CC[C@@H](C)[C@@H]1CN([C@H](Cc2ccc3ccccc3c2)CN2CCC[C@H]2CN2CCNC[C@@H]2CO)CCN1CCCC1CCCC1 the remaining binding was 88.9% (Oprd1; radioligand binding; rat brain membranes; 500 nM, pH 7.5, 25 °C, together with: 2 nM [3H]DPDPE).
For CN(C)[C@H]1C[C@@]23CC[C@@]4(O2)C(=CC[C@]2(C)[C@@H](c5ccc6ccncc6c5)CC[C@H]24)C=C3[C@@H](O)[C@@H]1O, the inhibition was 21.5% (TP53RK (Homo sapiens, UniProt Q96S44); ATP probe labelling, inhibitor, KiNativ profiling; 1 µM).
[CH3][Ti+2][O]C(=O)c1ccc([S][Au][PH](c2ccccc2)(c2ccccc2)c2ccccc2)cc1.c1cc[cH-]c1.c1cc[cH-]c1 gave a remaining activity of 97.6% and 94.4% (MAPK13 (Homo sapiens, UniProt O15264); kinase activity, HotSpot radiometric; 1 µM, together with: ATP 10 µM; baseline: vehicle).
O=C(N[C@@H]1c2ccccc2C[C@H]1N1CCCC1)c1ccc(-c2ccnc3[nH]ccc23)nc1 has a remaining binding of 8.7% (Ribosomal protein S6 kinase alpha-4, C-terminal kinase domain (RPS6KA4, Homo sapiens, UniProt O75676); binding, competition with immobilised ligand; 3 µM).
With C[C@@H](O)[C@@H]1CN([C@@H](CC2CCCCC2)CN2CCC[C@H]2CN2CCNC[C@@H]2CO)CCN1CCC12CC3CC(CC(C3)C1)C2 the remaining binding was 91.7% (Oprd1; radioligand binding; rat brain membranes; 500 nM, pH 7.5, 25 °C, together with: 2 nM [3H]DPDPE).
C#CCCCCOc1ccc2c(c1)CCCN2C(=O)CCl gave a reactivity ratio of 1.51 (CD151 antigen (CD151, Homo sapiens, UniProt P48509); mass spectrometry profiling, item: CD151; H460 cell lysate; 100 µM over 10 µM, UniProt P48509; baseline: high over low concentration).
With Cc1ccc(N2CC3CCC(C2)N3C)cc1C(=O)N[C@H](C)c1cc(-c2cnn(C)c2)nc2ccccc12 the remaining activity was 87.9% (Cathepsin K (CTSK, Homo sapiens, UniProt P43235); enzyme activity, inhibitor; 30 µM).
The ΔH of CC(=O)N[C@H]1[C@@H](O)[C@H](O)[C@@H](CO)O[C@H]1O is reported as -4.02 ± 0.277 kcal/mol (N-acetylmannosamine kinase (nanK, Haemophilus influenzae, UniProt Q4QP43, T131V); binding).
For CS(C)(=O)=Nc1ccc(-c2ccc(-c3nc4cc(O[C@@H]5CO[C@H]6[C@@H]5OC[C@H]6O)[nH]c4cc3F)cc2)cc1, the inhibition was -10% (GALR1 (Homo sapiens, UniProt P47211); ligand displacement, radioligand; 10 µM).
